Experimental data pooled from the literature.
“And” joins repeats or separate records; there may be more than shown. Numbers after ± are the reported error.

`C[C@@H](NC(=O)N1C(=O)[C@H](Cc2ccnc(N)c2)[C@H]1C(=O)O)C1CCCCC1` — result for “incidence of drug-related AEs”: 12.5% (healthy adult Chinese volunteers; continuous intravenous infusion, 0.3 mg/kg/h, 5-day infusion, CTCAE 5.0 grading).
For `N[C@@H]1c2ccccc2OC12CCN(c1cnc3c(N4CCCc5ncccc54)n[nH]c3n1)CC2`, “TEAE causing dose reduction” read 25% (advanced solid tumour patients; oral, 150 mg once daily).
`Clc1ccc(-c2ccccc2)cc1` has a creatinine of 0.4 ± 0.1 mg/dL (Sprague-Dawley rats, female, serum; inhalation, 23 µg/rat, 1 h after exposure).
The measured concentration of `O=C(O)CCC(CP(=O)(O)O)C(=O)O` (stereo not shown) is reported as 0.338 ± 0.014 µg/mL (rat, processed derivatized plasma; 0.3 µg/mL, 18 h, 10 °C, autosampler stability).
For `CCN1CCN(Cc2ccc(Nc3ncc(F)c(-c4cc(F)c5nc6n(c5c4)[C@H](C)CCC6)n3)nc2)CC1`, “leukopenia incidence, grade ≥3” read 4.2% (advanced solid tumour patients; dose not given, Phase Ia monotherapy).
For `COc1cccc(Oc2ccccc2NC(=O)CNC(=O)c2cccc3ccccc23)c1`, the total bilirubin was 0.1 mg/dL and 0.2 mg/dL (esterase-deficient SCID mice, male; oral, 15 mg/kg/day, 14 days, toxicity study).
`Brc1ccc(Oc2cc(Br)c(Br)cc2Br)c(Br)c1`: “dose fraction in skim milk” 9.29% (whole cow milk; 2000 nM nominal).
Under “subjects with drug-related headache”, `C[C@]1(CO)Cc2ncn(-c3ccc(C#N)c(Cl)c3)c2C(=O)O1` is recorded as 0% (human, Chinese; 20 mg single dose).
`O=C(Nc1ccccc1)C1CCN(C(=O)Oc2cccnc2)CC1` — result for “adverse event Agitation”: 7.1% (healthy women; oral, 20 mg, 7 days).
`CCc1ccc(CC/C=C/c2ccc3c(c2)C(=O)CC3)cc1` gave a prothrombin time of 14.8 s (Sprague-Dawley rat, male, blood; oral, 450 mg/kg/day, 14 days).
For `COc1cc2c(Oc3ccc4[nH]c(C)cc4c3F)ccnc2cc1OCC1(N)CC1`, “weight loss incidence” read 25% (paediatric refractory sarcoma patients; 10 mg).
The blood chemistry of `O=C(O)CCCOc1ccc(F)cc1-c1cc(-c2ccccc2C(F)(F)F)n(-c2ccccc2)n1` is reported as 0.12 ± 0.01 mg/dL (measured: T-Bil; Crl:CD(SD) rats, male, blood; iv, 25 µg/kg, 14 days).
Under “dose-reducing adverse events”, `CO[C@H]1C[C@@H]2CC[C@@H](C)[C@@](O)(O2)C(=O)C(=O)N2CCCC[C@H]2C(=O)O[C@H]([C@H](C)C[C@@H]2CC[C@@H](OC(=O)NCCOCCOCCOCCOCCOCCOCCOCCOCCC(=O)N3CCc4cc(Cn5nc(-c6ccc7oc(N)nc7c6)c6c(N)ncnc65)ccc4C3)[C@H](OC)C2)C[C@@H](O)[C@H](C)/C=C(\C)[C@@H](O)[C@@H](OC)C(=O)[C@H](C)C[C@H](C)/C=C/C=C/C=C/1C` is recorded as 0% (phase 1 dose escalation, measured: mucositis; advanced solid tumour patients; intravenous, 12 mg weekly, any grade).
